Published values collected from several papers.
Parts stem from different laboratories: compare values within a part only.
Chain of UniProt P48729 (whole entry, looked up): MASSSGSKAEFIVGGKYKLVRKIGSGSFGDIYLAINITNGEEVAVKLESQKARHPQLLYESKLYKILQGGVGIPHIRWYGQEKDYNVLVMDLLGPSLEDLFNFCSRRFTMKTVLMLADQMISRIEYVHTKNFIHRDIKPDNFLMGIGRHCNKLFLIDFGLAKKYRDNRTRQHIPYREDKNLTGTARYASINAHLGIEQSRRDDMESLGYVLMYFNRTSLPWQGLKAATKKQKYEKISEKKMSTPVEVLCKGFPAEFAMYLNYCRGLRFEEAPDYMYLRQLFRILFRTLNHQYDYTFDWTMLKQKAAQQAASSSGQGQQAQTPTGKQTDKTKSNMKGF
Chain of UniProt P07333 (whole entry, looked up): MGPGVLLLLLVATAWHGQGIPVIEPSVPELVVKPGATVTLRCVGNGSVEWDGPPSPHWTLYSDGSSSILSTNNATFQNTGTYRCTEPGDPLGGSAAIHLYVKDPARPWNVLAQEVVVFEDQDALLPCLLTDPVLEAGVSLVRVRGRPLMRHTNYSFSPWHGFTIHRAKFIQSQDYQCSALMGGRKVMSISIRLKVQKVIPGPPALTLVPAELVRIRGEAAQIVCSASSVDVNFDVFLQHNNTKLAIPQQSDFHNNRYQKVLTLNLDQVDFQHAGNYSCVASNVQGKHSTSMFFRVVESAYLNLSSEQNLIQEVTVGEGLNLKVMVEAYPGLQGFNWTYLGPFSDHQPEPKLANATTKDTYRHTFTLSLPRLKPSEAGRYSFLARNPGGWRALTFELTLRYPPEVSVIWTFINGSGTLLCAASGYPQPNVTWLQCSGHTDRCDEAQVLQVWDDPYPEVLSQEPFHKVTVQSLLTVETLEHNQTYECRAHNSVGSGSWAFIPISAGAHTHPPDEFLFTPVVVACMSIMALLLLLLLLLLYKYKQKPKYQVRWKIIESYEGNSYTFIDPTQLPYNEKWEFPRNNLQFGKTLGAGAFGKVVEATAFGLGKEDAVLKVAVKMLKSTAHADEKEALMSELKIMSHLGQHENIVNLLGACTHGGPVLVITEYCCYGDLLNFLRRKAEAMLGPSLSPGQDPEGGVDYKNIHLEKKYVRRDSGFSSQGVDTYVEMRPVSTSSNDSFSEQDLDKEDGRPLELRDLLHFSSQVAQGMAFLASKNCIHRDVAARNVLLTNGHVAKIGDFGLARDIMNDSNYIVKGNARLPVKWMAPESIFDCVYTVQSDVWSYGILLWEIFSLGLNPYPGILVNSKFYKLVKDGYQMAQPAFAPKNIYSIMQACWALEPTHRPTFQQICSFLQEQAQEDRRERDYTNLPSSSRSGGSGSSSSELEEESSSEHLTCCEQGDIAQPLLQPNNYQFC
Chain of UniProt Q9H1R3 (whole entry, looked up): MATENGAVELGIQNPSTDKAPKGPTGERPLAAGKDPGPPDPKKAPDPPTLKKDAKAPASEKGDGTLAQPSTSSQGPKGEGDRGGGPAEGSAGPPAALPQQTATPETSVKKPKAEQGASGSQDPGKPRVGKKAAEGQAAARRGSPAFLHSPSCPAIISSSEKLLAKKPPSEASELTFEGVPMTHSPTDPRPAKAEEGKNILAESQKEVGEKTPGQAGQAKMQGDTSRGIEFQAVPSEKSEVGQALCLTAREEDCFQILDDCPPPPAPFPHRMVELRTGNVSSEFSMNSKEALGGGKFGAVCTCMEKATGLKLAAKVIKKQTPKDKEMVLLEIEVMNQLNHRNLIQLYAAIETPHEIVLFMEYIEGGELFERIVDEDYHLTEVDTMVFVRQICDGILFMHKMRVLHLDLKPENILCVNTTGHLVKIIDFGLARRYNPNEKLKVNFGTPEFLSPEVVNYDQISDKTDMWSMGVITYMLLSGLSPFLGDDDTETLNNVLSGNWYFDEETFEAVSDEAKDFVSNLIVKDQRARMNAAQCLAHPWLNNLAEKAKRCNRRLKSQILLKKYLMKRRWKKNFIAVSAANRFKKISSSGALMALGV
Chain of UniProt O00238 (whole entry, looked up): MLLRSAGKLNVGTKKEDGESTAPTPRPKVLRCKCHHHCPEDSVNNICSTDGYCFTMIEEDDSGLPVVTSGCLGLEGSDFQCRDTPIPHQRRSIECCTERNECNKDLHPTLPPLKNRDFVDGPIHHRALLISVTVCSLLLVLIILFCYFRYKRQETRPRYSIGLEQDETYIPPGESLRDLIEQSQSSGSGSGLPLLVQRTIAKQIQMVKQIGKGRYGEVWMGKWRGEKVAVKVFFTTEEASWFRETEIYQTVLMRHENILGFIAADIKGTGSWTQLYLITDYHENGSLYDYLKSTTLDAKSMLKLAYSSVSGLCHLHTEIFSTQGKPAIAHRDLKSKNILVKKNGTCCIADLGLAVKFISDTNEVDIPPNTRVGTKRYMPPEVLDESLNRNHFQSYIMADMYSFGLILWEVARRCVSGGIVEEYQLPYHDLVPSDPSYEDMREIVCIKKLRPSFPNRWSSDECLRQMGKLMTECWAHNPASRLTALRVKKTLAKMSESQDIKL
Chain of UniProt Q15831 (whole entry, looked up): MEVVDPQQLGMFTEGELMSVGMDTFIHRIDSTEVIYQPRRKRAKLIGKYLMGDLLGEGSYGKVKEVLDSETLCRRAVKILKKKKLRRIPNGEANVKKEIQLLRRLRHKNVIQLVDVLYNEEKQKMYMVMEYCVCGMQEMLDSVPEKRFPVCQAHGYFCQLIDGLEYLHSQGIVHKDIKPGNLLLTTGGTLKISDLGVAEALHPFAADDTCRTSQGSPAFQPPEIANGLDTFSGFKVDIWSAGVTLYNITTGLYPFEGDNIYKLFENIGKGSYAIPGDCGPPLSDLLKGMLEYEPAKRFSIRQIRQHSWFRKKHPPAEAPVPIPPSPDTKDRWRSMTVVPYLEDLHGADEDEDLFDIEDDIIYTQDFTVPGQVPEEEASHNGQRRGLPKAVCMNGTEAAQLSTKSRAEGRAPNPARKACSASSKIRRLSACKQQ
Chain of UniProt Q13546 (whole entry, looked up): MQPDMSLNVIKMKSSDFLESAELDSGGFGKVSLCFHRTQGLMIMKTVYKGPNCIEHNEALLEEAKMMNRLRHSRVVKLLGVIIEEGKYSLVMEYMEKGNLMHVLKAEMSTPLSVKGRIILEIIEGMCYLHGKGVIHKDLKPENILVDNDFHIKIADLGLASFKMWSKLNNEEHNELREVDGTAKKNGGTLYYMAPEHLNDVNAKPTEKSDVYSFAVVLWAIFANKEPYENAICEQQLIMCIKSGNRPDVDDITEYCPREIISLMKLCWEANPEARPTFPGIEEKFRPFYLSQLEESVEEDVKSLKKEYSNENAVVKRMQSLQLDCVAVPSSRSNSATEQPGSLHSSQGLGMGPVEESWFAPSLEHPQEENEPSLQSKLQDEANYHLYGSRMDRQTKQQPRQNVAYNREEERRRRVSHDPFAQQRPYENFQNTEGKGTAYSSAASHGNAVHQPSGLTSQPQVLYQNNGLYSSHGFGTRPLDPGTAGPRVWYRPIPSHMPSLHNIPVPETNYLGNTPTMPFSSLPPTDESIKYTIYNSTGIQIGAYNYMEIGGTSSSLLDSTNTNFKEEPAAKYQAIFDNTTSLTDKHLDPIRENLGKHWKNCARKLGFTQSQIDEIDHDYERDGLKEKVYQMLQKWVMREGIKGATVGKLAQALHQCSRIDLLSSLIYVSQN
Chain of UniProt Q86UX6 (whole entry, looked up): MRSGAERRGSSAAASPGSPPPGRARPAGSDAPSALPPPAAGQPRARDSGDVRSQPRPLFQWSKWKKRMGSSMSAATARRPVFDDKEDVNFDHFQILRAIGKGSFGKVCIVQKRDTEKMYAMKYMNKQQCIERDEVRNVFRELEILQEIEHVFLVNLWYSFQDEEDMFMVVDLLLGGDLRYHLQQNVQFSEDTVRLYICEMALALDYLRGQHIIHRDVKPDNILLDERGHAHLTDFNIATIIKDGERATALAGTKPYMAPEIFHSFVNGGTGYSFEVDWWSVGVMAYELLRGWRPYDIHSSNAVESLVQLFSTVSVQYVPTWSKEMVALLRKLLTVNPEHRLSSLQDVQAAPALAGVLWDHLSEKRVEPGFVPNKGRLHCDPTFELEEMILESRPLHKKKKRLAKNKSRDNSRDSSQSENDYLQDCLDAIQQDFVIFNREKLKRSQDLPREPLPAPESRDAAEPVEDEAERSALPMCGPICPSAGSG

Block 1 — cell line: Huh-7; tested at: 10 µM; time: 24 h; quantity: viability
CN(C)CCCN1c2ccccc2CCc2ccccc21: 88.3%
CCOc1nc2cccc(C(=O)OC(C)OC(=O)OC3CCCCC3)c2n1Cc1ccc(-c2ccccc2-c2nnn[nH]2)cc1 (stereo not shown): 95.1%
CCCCNc1cc(C(=O)O)cc(S(N)(=O)=O)c1Oc1ccccc1: 97.2%
C[C@](N)(Cc1ccc(O)cc1)C(=O)O: 101%
C[C@@H](NCCc1ccc(O)cc1)[C@@H](O)c1ccc(O)cc1 (racemic): 96.6%
C[C@]12CC[C@@H]3c4ccc(O)cc4CC[C@H]3[C@@H]1CC[C@@H]2O: 85.4%
C=C[C@@]1(C)CC(=O)[C@]2(O)[C@@]3(C)[C@@H](O)CCC(C)(C)[C@@H]3[C@H](O)[C@H](OC(C)=O)[C@@]2(C)O1: 90.5%
CC(C)(Sc1cc(C(C)(C)C)c(O)c(C(C)(C)C)c1)Sc1cc(C(C)(C)C)c(O)c(C(C)(C)C)c1: 101%
CN1CCC(=C2c3ccccc3CC(=O)c3sccc32)CC1: 100%
CC1(C)NC(=O)N(c2ccc([N+](=O)[O-])c(C(F)(F)F)c2)C1=O: 96.2%
CCc1nc(N)nc(N)c1-c1ccc(Cl)cc1: 65.4%
CN(C)CC[C@@H](c1ccc(Cl)cc1)c1ccccn1: 89.2%
C[C@]12CC[C@@H]3c4ccc(O)cc4CC[C@H]3[C@@H]1CCC2=O: 91.9%
CO[C@@]1(NC(=O)Cc2cccs2)C(=O)N2C(C(=O)O)=C(COC(N)=O)CS[C@@H]21: 96%
CCN(CC)C(=O)c1ccc(O)c(OC)c1: 96.5%
Cc1ccccc1OCC(O)CO (stereo not shown): 101%

Block 2 — read-out: enzyme activity; action: inhibitor; tested at: 10 µM; quantity: inhibition
Target: Calcium/calmodulin-dependent protein kinase type II subunit alpha (CAMK2A, Homo sapiens, UniProt Q9UQM7)
Chain of UniProt Q9UQM7 (whole entry, looked up): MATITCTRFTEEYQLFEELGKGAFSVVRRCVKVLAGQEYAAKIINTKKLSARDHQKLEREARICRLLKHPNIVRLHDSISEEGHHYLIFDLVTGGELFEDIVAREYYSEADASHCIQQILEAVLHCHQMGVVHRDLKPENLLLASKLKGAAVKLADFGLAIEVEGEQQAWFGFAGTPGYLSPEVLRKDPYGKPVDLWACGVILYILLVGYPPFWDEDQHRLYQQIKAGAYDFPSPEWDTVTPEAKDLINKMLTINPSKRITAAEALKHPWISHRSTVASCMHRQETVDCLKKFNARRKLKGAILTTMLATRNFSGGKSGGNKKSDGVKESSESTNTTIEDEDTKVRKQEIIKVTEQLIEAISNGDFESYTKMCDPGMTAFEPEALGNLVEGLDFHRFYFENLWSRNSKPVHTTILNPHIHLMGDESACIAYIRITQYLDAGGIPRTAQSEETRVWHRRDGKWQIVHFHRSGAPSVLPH
COc1cc(/C=C/C(=O)O[C@H]2[C@H](O)[C@@H](CO)O[C@@]2(CO)O[C@H]2O[C@H](CO)[C@@H](O)[C@H](O)[C@H]2O)ccc1O: 5%
C/C=C(/C)C(=O)O[C@H]1c2cc(OC)c(OC)c(OC)c2-c2c(cc(OC)c(OC)c2OC)C[C@H](C)[C@]1(C)O: 9%
Nc1nc2c(ncn2COCCO)c(=O)[nH]1: -8%
CN1CCN(c2c(F)cc3c(=O)c(C(=O)O)cn4c3c2SCC4)CC1: -6%
COc1cc2c(c(OC)c1OC)-c1c(cc(OC)c(OC)c1OC)C[C@H](C)[C@H](C)C2: 40%
O=c1cc(-c2ccc(O)cc2)oc2cc(O)c([C@@H]3O[C@H](CO)[C@@H](O)[C@H](O)[C@H]3O[C@@H]3O[C@H](CO)[C@@H](O)[C@H](O)[C@H]3O)c(O)c12: -1%
CN1CCCC(n2nc(Cc3ccc(Cl)cc3)c3ccccc3c2=O)CC1 (stereo not shown): -2%
O=c1ccn([C@@H]2O[C@H](COP(=O)(O)OP(=O)(O)OP(=O)(O)OP(=O)(O)OC[C@H]3O[C@@H](n4ccc(=O)[nH]c4=O)[C@H](O)[C@@H]3O)[C@@H](O)[C@H]2O)c(=O)[nH]1: 1%
Nc1ncnc2c1ncn2[C@@H]1O[C@H](COP(=O)(O)OP(=O)(O)O)[C@@H](O)[C@H]1O: 9%
CC(C(=O)O)c1ccc(C(=O)c2ccccc2)s1 (stereo not shown): 19%
CC[C@H](C)C[C@H](C)CCCCCCCCC(=O)N[C@H]1C[C@@H](O)[C@@H](O)NC(=O)[C@@H]2[C@@H](O)CCN2C(=O)[C@H]([C@H](O)CC(N)=O)NC(=O)[C@H]([C@H](O)[C@@H](O)c2ccc(O)cc2)NC(=O)[C@@H]2C[C@@H](O)CN2C(=O)[C@H]([C@@H](C)O)NC1=O: -1%
Oc1ccc2c(c1)OC[C@]1(O)Cc3cc(O)c(O)cc3[C@H]21: -10%
O=C(O)/C=C/c1ccc(O)c(O)c1: -1%
CC(=O)O[C@@H]1CC[C@@]2(C)[C@@H](CC[C@]3(C)[C@@H]2CC=C2[C@@H]4CC(C)(C)CC[C@]4(C)CC[C@]23C)[C@@]1(C)C(=O)O: -2%
CC(=O)O[C@@H]1[C@@H](OC(C)=O)[C@@H](O)[C@H](Oc2c(-c3ccc(O)cc3)oc3cc(O)cc(O)c3c2=O)O[C@H]1C: -5%
CC1=NCC[C@@H](C(=O)O)N1: 15%
Cn1c(=O)c2c(ncn2CCO)n(C)c1=O: -4%
N[C@H]1[C@H](O[C@H]2[C@H](O)[C@@H](N)C(O)O[C@@H]2CO)O[C@H](CO)[C@@H](O)[C@@H]1O (stereo partly shown): 14%

Block 3 — method: competition with immobilised ligand; tested at: 0.1 µM; quantity: remaining binding
SMILES: Cn1cc(Cl)c2c(Oc3c(F)cc(Nc4cc(Cl)nc(N)n4)cc3F)ccnc21
Receptor-type tyrosine-protein kinase FLT3 (FLT3, Homo sapiens, UniProt P36888); cell-free assay: 100%
Epidermal growth factor receptor (EGFR, Homo sapiens, UniProt P00533, G719S); cell-free assay: 98%
Receptor-type tyrosine-protein kinase FLT3 (FLT3, Homo sapiens, UniProt P36888, D835V/ITD); cell-free assay: 79%
Casein kinase I isoform alpha-like (CSNK1A1L, Homo sapiens, UniProt Q8N752); cell-free assay: 98%
G protein-coupled receptor kinase 4 (GRK4, Homo sapiens, UniProt P32298); cell-free assay: 100%
Serine/threonine-protein kinase STK11 (STK11, Homo sapiens, UniProt Q15831); cell-free assay: 100%
Receptor-interacting serine/threonine-protein kinase 1 (RIPK1, Homo sapiens, UniProt Q13546); cell-free assay: 100%
Epidermal growth factor receptor (EGFR, Homo sapiens, UniProt P00533, A750P/del747-749); cell-free assay: 94%
Serine/threonine-protein kinase MARK2 (MARK2, Homo sapiens, UniProt Q7KZI7); cell-free assay: 100%
Mitogen-activated protein kinase kinase kinase 2 (MAP3K2, Homo sapiens, UniProt Q9Y2U5); cell-free assay: 79%
Glycogen synthase kinase-3 alpha (GSK3A, Homo sapiens, UniProt P49840); cell-free assay: 99%
Casein kinase I isoform alpha (CSNK1A1, Homo sapiens, UniProt P48729); cell-free assay: 93%
Phosphatidylinositol 4,5-bisphosphate 3-kinase catalytic subunit beta isoform (PIK3CB, Homo sapiens, UniProt P42338); cell-free assay: 82%
Dual specificity testis-specific protein kinase 1 (TESK1, Homo sapiens, UniProt Q15569); cell-free assay: 100%
Serine/threonine-protein kinase PLK4 (PLK4, Homo sapiens, UniProt O00444); cell-free assay: 83%
Hepatocyte growth factor receptor (MET, Homo sapiens, UniProt P08581, M1250T); cell-free assay: 100%
Protein kinase C eta type (PRKCH, Homo sapiens, UniProt P24723); cell-free assay: 98%
Epidermal growth factor receptor (EGFR, Homo sapiens, UniProt P00533, L861Q); cell-free assay: 100%
Macrophage colony-stimulating factor 1 receptor (CSF1R, Homo sapiens, UniProt P07333); cell-free assay: 93%
Tyrosine-protein kinase ABL1, non-phosphorylated (ABL1, Homo sapiens, UniProt P00519, Q252H); cell-free assay: 78%
Bone morphogenetic protein receptor type-1B (BMPR1B, Homo sapiens, UniProt O00238); cell-free assay: 86%
Mitogen-activated protein kinase 9 (MAPK9, Homo sapiens, UniProt P45984); cell-free assay: 86%
Serine/threonine-protein kinase 32C (STK32C, Homo sapiens, UniProt Q86UX6); cell-free assay: 100%
Activin receptor type-1-like (ACVRL1, Homo sapiens, UniProt P37023); binding: 93%
Myosin light chain kinase 2, skeletal/cardiac muscle (MYLK2, Homo sapiens, UniProt Q9H1R3); cell-free assay: 99%

Block 4 — read-out: enzyme activity; action: inhibitor; tested at: 0.5 µM; baseline: control; quantity: remaining activity
Target: Serine/threonine-protein kinase 26 (STK26, Homo sapiens, UniProt Q9P289)
Chain of UniProt Q9P289 (whole entry, looked up): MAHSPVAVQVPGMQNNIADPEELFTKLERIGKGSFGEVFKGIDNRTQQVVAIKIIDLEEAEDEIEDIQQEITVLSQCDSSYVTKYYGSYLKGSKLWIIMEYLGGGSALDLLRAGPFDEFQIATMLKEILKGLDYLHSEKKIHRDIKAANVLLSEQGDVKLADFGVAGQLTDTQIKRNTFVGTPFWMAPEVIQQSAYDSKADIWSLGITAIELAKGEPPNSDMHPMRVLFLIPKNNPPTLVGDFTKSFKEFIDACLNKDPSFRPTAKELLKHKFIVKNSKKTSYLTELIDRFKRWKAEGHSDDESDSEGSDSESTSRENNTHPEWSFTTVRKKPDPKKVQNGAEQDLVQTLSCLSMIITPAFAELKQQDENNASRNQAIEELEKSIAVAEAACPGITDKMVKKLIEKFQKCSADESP
COc1cc2c(N3CCN(C(=O)Nc4ccc(OC(C)C)cc4)CC3)ncnc2cc1OCCCN1CCCCC1: 101%
NC(=O)c1ccc(-c2nc(-c3ccc4c(c3)OCCO4)c(-c3ccccn3)[nH]2)cc1: 88.3%
CC(C)N(CCC(=O)c1ccc2ccccc2c1)Cc1ccccc1: 108%
Nc1nc(Nc2ccc(S(N)(=O)=O)cc2)nn1C(=S)Nc1c(F)cccc1F: 4.54%
COc1cc2c(Nc3ccc(Br)cc3F)ncnc2cc1OCC1CCN(C)CC1: 102%
O=C(c1ccccc1)c1ccc(N2CCOCC2)cc1O: 101%
CCN(CC)CCCCN1c2ccccc2Oc2ccc(Cl)cc21: 98%
NC(=O)c1cccc(-c2cc(Nc3ccc(OC(F)(F)F)cc3)ncn2)c1: 94.7%
c1cc(-c2cnn3cc(-c4ccc(OCCN5CCCCC5)cc4)cnc23)ccn1: 87.3%
FC(F)(F)c1ccc(/C=C/c2nc(COc3ccc(CCCCn4ccnn4)cc3)co2)cc1: 98%
O=C(O)/C=C/c1cc(Br)c(Br)c(Br)c1Br: 88.7%
CC(C)n1cnc2c(Nc3cccc(Cl)c3)nc(NCCO)nc21: 87.9%
N#CC(c1ccnc(NCCc2cccnc2)n1)c1nc2ccccc2s1 (stereo not shown): 104%
O=Nc1c(-c2c(O)[nH]c3ccccc23)[nH]c2ccccc12: 75.3%
C[C@@H](N)[C@H]1CC[C@H](C(=O)Nc2ccncc2)CC1: 96.4%
Clc1ccc(Nc2nnc(Cc3ccncc3)c3ccccc23)cc1: 118%
O=c1c(-c2ccc(F)cc2)c(-c2ccncc2)[nH]n1-c1ccc(Cl)cc1: 94.1%
CCCCc1c(-c2ccc(O)cc2)[nH]c2nccnc12: 79.1%
CC(C)(C)c1nc2c3cc[nH]c(=O)c3c3cc(F)ccc3c2[nH]1: 70.9%
O=C1NC(=O)/C(=C/c2ccc3c(c2)OC(F)(F)O3)S1: 86.8%
O=C1c2ccccc2-c2nc3nnnn3nc21: 91.8%
CNc1cc2c(Nc3cccc(Br)c3)ncnc2cn1: 109%
N#C/C(=C(/N)SC1C=CC=CC1)c1cccc(C(O)c2ccncc2)c1 (stereo not shown): 100%

Excerpt of the above (block 4):
Clc1ccc(Nc2nnc(Cc3ccncc3)c3ccccc23)cc1: 118%
O=c1c(-c2ccc(F)cc2)c(-c2ccncc2)[nH]n1-c1ccc(Cl)cc1: 94.1%
CCCCc1c(-c2ccc(O)cc2)[nH]c2nccnc12: 79.1%
CC(C)(C)c1nc2c3cc[nH]c(=O)c3c3cc(F)ccc3c2[nH]1: 70.9%
O=C1NC(=O)/C(=C/c2ccc3c(c2)OC(F)(F)O3)S1: 86.8%
O=C1c2ccccc2-c2nc3nnnn3nc21: 91.8%
